Results of several laboratories.
Parts stem from different laboratories: compare values within a part only.
UniProt Q13554, sequence (whole entry, looked up): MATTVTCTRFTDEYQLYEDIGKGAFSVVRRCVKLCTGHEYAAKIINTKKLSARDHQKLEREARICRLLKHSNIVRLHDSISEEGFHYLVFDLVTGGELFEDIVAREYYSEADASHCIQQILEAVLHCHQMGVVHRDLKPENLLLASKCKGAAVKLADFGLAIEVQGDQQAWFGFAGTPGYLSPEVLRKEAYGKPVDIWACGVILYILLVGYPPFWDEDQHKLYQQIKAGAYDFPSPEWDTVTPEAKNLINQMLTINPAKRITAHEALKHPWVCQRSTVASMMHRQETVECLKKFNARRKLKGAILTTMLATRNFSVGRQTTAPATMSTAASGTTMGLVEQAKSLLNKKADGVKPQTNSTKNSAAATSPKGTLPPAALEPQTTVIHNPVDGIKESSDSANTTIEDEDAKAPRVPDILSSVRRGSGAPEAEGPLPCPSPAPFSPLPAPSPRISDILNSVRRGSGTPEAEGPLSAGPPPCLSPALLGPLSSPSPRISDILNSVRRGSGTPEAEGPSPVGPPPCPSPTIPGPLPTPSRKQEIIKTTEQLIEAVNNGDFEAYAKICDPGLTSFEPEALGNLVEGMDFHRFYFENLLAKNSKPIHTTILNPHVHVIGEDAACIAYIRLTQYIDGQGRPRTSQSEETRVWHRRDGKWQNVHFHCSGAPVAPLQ
UniProt Q9UEE5, sequence (whole entry, looked up): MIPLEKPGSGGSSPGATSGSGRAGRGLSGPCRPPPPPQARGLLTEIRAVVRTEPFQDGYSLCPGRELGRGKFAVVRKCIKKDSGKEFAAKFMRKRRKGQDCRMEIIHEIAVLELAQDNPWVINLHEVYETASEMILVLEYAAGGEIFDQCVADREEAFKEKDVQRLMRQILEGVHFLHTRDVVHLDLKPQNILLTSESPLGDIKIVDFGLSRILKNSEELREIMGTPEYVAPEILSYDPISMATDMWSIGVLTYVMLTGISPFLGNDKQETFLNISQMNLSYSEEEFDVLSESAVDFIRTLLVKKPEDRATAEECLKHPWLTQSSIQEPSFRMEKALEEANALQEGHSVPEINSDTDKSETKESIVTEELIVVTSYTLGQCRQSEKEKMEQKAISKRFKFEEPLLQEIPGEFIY
UniProt Q96PY6, sequence (whole entry, looked up): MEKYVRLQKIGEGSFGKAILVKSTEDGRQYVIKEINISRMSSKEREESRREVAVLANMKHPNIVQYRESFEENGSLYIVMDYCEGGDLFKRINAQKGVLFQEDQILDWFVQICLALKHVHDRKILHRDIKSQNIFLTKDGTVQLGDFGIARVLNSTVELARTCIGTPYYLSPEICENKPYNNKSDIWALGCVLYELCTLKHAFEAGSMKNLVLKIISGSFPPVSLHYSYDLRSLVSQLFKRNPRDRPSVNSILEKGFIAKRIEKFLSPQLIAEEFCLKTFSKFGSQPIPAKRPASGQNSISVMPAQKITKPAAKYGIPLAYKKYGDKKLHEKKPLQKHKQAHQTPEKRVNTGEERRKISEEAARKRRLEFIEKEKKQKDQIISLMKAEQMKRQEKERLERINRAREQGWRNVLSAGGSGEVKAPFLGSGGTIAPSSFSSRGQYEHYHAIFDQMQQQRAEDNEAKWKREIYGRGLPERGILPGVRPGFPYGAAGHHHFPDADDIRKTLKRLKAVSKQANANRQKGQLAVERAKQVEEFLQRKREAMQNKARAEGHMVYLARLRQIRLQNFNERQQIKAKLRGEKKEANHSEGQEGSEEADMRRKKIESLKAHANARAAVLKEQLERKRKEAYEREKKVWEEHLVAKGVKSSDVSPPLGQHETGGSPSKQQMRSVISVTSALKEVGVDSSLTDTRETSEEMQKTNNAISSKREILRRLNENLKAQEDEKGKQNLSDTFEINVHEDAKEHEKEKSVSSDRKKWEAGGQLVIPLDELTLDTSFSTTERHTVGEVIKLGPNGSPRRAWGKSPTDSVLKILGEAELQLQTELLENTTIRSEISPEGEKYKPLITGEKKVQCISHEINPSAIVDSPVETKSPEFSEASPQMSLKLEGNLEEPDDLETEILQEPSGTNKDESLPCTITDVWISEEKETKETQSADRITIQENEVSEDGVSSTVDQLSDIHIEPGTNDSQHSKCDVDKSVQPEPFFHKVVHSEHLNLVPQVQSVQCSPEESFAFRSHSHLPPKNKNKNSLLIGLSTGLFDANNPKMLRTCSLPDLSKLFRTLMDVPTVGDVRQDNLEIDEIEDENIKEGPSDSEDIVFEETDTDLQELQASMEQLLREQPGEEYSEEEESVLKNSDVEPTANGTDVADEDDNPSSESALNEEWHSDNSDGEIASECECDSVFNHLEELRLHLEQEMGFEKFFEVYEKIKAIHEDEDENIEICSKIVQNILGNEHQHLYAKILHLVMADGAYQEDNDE
UniProt O95819, sequence (whole entry, looked up): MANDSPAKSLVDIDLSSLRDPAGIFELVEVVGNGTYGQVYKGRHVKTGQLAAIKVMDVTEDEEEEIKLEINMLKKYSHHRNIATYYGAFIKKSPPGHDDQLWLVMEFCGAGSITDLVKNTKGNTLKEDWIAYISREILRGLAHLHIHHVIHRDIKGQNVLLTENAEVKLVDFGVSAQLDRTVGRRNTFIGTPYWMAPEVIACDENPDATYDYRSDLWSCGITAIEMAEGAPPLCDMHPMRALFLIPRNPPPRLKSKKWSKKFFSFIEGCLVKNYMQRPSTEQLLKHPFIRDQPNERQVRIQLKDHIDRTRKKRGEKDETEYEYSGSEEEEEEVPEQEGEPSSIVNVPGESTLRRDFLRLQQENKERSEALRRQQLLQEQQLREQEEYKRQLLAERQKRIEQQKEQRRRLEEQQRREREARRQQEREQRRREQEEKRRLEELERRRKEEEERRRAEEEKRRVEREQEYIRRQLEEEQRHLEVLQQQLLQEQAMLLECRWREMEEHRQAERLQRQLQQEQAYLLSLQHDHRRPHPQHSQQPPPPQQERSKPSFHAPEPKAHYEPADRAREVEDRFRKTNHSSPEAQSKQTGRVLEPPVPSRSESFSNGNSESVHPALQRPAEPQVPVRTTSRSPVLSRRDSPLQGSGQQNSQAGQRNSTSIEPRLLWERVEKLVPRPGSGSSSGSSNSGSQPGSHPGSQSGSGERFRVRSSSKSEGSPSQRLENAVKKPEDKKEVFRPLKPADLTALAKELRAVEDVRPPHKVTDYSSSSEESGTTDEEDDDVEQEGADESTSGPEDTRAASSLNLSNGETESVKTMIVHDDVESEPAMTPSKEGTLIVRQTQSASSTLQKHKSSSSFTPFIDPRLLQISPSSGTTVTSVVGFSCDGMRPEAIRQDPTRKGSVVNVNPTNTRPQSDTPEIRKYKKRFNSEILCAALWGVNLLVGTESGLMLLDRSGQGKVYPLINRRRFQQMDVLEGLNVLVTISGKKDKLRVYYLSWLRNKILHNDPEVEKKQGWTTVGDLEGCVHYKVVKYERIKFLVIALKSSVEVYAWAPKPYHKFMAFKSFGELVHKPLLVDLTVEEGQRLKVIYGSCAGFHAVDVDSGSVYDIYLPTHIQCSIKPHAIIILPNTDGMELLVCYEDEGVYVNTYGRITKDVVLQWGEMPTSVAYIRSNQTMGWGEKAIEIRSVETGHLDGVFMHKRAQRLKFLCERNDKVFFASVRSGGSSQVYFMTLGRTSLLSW
UniProt Q8TDV5, sequence (whole entry, looked up): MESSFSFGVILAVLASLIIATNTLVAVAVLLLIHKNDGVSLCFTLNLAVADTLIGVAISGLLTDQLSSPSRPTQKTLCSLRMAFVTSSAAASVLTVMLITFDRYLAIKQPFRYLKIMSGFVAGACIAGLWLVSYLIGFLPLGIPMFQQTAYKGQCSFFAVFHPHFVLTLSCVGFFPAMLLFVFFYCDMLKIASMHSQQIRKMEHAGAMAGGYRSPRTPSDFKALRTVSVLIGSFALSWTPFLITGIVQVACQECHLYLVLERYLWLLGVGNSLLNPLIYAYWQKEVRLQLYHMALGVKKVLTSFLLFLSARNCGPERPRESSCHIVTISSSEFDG
UniProt Q96LA9, sequence (whole entry, looked up): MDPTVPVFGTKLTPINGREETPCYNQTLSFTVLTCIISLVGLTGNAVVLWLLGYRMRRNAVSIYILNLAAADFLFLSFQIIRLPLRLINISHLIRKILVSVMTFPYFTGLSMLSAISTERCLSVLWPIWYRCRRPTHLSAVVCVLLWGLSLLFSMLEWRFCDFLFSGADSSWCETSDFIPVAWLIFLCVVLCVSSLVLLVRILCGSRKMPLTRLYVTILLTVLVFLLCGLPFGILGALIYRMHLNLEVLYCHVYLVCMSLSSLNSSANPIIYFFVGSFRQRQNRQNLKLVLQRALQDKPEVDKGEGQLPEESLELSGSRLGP
UniProt P06493, sequence (whole entry, looked up): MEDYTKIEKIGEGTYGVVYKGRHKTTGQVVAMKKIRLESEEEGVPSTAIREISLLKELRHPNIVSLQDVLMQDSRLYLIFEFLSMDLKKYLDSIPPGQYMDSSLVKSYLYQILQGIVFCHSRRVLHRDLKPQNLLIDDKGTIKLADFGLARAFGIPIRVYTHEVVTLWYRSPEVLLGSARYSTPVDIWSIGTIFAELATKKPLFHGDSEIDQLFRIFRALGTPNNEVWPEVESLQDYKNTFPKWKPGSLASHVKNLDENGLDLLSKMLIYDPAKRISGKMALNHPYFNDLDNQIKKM

Set 1
Target: Calcium/calmodulin-dependent protein kinase type II subunit alpha (CAMK2A, Homo sapiens, UniProt Q9UQM7)
UniProt Q9UQM7, sequence (whole entry, looked up): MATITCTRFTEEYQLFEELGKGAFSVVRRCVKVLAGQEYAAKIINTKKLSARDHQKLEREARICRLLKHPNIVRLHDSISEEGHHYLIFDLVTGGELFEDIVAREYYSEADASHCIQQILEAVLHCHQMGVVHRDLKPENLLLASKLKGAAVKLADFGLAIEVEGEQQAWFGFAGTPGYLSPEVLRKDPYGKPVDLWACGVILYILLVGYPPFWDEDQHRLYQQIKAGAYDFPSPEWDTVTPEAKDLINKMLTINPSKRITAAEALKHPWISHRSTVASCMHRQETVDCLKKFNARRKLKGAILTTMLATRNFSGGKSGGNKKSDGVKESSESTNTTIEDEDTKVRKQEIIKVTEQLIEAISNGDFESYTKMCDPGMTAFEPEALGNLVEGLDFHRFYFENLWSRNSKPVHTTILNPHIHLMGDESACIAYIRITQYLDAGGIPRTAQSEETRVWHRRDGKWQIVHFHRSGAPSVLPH
Observed: enzyme activity
Action: inhibitor
Tested at: 10 µM
Endpoint: inhibition
C[C@@H]1CN(C(=O)c2ccc(NC(=O)c3cc(O[C@H](C)c4c(Cl)ccc(F)c4Cl)c(N)nn3)cc2)C[C@H](C)N1: 10%
N[C@H]1[C@H](O[C@H]2[C@H](O)[C@@H](N)[C@H](O[C@H]3[C@H](O)[C@@H](N)[C@H](O[C@@H]([C@H](O)[C@@H](N)C=O)[C@H](O)CO)O[C@@H]3CO)O[C@@H]2CO)O[C@H](CO)[C@@H](O)[C@@H]1O: -1%
CC(C)Cc1ccc([C@@H](C)C(=O)O)cc1: -9%
Cc1[nH]c(=O)c(C#N)cc1-c1ccncc1: -12%
CC/C=C\CC1=C(C)CCC1=O: -7%
CCOc1nc2cccc(C(=O)O)c2n1Cc1ccc(-c2ccccc2-c2noc(=O)[nH]2)cc1: -8%
C[C@]12CC[C@@H]3c4ccc(O)cc4CC[C@H]3[C@@H]1C[C@@H](O)[C@@H]2O: -12%
O=C(O)[C@@H](O)CO: 9%
O=NN(CCCl)C(=O)NCCCl: -9%
Fc1ccc([C@@H]2CCNC[C@H]2COc2ccc3c(c2)OCO3)cc1: 3%
O=C1c2cccc3c2[C@H](CCC3)CN1[C@@H]1CN2CCC1CC2: -9%
O=C1Nc2ccccc2C1=O: -6%
CC(=O)OCC(=O)NCCCOc1cccc(CN2CCCCC2)c1: -4%
COc1ccc([C@@H]2CC(=O)c3c(O)cc(O[C@@H]4O[C@H](CO)[C@@H](O)[C@H](O)[C@H]4O)cc3O2)cc1O: 17%

Set 2
SMILES: N=C(N)NC(=O)c1cnn(-c2cccc3ncccc23)c1C1CC1
Observed: β-arrestin recruitment
Action: agonist
Technique: PRESTO-Tango
Tested at: 10 µM
Relative to: untreated
Endpoint: fold over basal
Mas-related G-protein coupled receptor member X4 (Homo sapiens, UniProt Q96LA9): 1.09
VIPR1 (Homo sapiens, UniProt P32241): 1.25 fold
Glucagon receptor (GCGR, Homo sapiens, UniProt P47871): 0.98 fold
GPR119 (Homo sapiens, UniProt Q8TDV5): 0.74
CXCR1 (Homo sapiens, UniProt P25024): 1.2
G-protein coupled receptor family C group 5 member B (GPRC5B, Homo sapiens, UniProt Q9NZH0): 0.91
OPRD1 (Homo sapiens, UniProt P41143): 1.79
G-protein coupled receptor 61 (GPR61, Homo sapiens, UniProt Q9BZJ8): 1.06
Adhesion G protein-coupled receptor F5 (ADGRF5, Homo sapiens, UniProt Q8IZF2): 1.29

Set 3
Compound: CN([C@@H](Cc1ccc(OS(=O)(=O)c2cccc3cnccc23)cc1)C(=O)N1CCN(c2ccccc2)CC1)S(=O)(=O)c1cccc2cnccc12
Observed: enzyme activity
Action: inhibitor
Tested at: 0.5 µM
Relative to: control
Endpoint: remaining activity
PRKACG (Homo sapiens, UniProt P22612): 107%
WNK3 (Homo sapiens, UniProt Q9BYP7): 101%
AXL (Homo sapiens, UniProt P30530): 103%
Cyclin-dependent kinase 1, with cyclin B (CDK1, Homo sapiens, UniProt P06493): 108%
Cyclin-dependent kinase 6, with cyclin D3 (CDK6, Homo sapiens, UniProt Q00534): 105%
MAP4K4 (Homo sapiens, UniProt O95819): 94.8%
STK17A (Homo sapiens, UniProt Q9UEE5): 104%
CAMK2B (Homo sapiens, UniProt Q13554): 97.8%
PDPK1 (Homo sapiens, UniProt O15530): 96.4%
RPS6KA5 (Homo sapiens, UniProt O75582): 100%
TSSK2 (Homo sapiens, UniProt Q96PF2): 105%

Set 4
SMILES: Cc1nccc(COC(=O)N2C[C@@H]3[C@@H](CNC(=O)c4ccc5[nH]nnc5c4)[C@@H]3C2)n1
Observed: cell-free assay
Technique: competition with immobilised ligand
Tested at: 1 µM
Endpoint: remaining binding
AKT3 (Homo sapiens, UniProt Q9Y243): 100%
TBK1 (Homo sapiens, UniProt Q9UHD2): 96%
EPHA6 (Homo sapiens, UniProt Q9UF33): 98%
TGFBR2 (Homo sapiens, UniProt P37173): 100%
Non-receptor tyrosine-protein kinase TYK2, JH2 (TYK2, Homo sapiens, UniProt P29597): 100%
LCK (Homo sapiens, UniProt P06239): 94%
NEK1 (Homo sapiens, UniProt Q96PY6): 100%
MAP2K3 (Homo sapiens, UniProt P46734): 84%
Ribosomal protein S6 kinase alpha-1, N-terminal kinase domain (RPS6KA1, Homo sapiens, UniProt Q15418): 98%

A few entries again (set 1):
CCOc1nc2cccc(C(=O)O)c2n1Cc1ccc(-c2ccccc2-c2noc(=O)[nH]2)cc1: -8%
CC(=O)OCC(=O)NCCCOc1cccc(CN2CCCCC2)c1: -4%
Cc1[nH]c(=O)c(C#N)cc1-c1ccncc1: -12%
O=NN(CCCl)C(=O)NCCCl: -9%
